Assay results from different studies.
Protocols differ between the studies behind these lines. ≈ marks a conversion by molar mass, not a printed value.

| Compound | organism | test | system | setting | scale | measurement | result |
| --- | --- | --- | --- | --- | --- | --- | --- |
| CCCCCCCCn1c(C)nc2ccccc21 | Mycobacterium tuberculosis variant bovis BCG | microbial growth | BCG | 5 days | – | MIC90 | > 50 µM |
| CCCCCCCCn1cc(CN2CCC3(CC2)OCCCS3)c2ccc(OC)cc21 | Mycobacterium tuberculosis variant bovis BCG | microbial growth | BCG | – | – | MIC50 | 0.26 µM (≈ 0.116 µg/mL) |
| O=[N+]([O-])NC1=NCCN1Cc1ccc(Cl)nc1 | Bemisia tabaci | leaf-dip bioassay | biotype B | 72 h, adults | reference: LC50 over susceptible strain | resistance ratio | > 1300 |
| S=C=NCc1ccccc1 | influenza virus | viral replication | MDCK | 72 h | – | IC50 | > 10 µM |
| NC(=O)c1ncn([C@@H]2O[C@H](CO)[C@@H](O)[C@H]2O)n1 | vesicular stomatitis virus | viral replication | HeLa | – | – | EC50 | 4 µM |
| O=C(O)c1cc(O)c2c(c1)[C@H]([C@H]1c3cc(C(=O)O)cc(O)c3C(=O)c3c(O[C@@H]4O[C@H](CO)[C@@H](O)[C@H](O)[C@H]4O)cccc31)c1cccc(O[C@@H]3O[C@H](CO)[C@@H](O)[C@H](O)[C@H]3O)c1C2=O | influenza virus | viral replication | MDCK | 72 h | – | IC50 | > 10 µM |
| CCC(=O)Nc1cnc(C(=O)O)cn1 | Mycobacterium tuberculosis variant bovis BCG | microbial growth | ATCC35734 BCG | 5 days | – | IC50 | 3500 µM |
| Cc1ccc(S(=O)(=O)N2C(=O)CSC2c2ccc(Cl)cc2)cc1 (centres unmarked) | influenza B virus | viral cytopathicity, visual CPE scoring | MDCK, B/Ned/537/05 | – | – | EC50 | > 100 µM |
| O=C(O)c1nccnc1NC1CCC1 | Mycobacterium tuberculosis variant bovis BCG | microbial growth | ATCC35734 BCG | 5 days | – | IC50 | 400 µM |
| CC(=O)N1CCN(c2ccc(OCC3COC(Cn4ccnc4)(c4ccc(Cl)cc4Cl)O3)cc2)CC1 (centres unmarked) | influenza virus | viral replication | MDCK | 72 h | – | IC50 | > 10 µM |
| CC(C)CNc1nccnc1C(=O)O | Mycobacterium tuberculosis variant bovis BCG | microbial growth | ATCC35734 BCG | 5 days | – | IC50 | 200 µM |
| CCCCn1c(C)nc2ccccc21 | Mycobacterium tuberculosis variant bovis BCG | microbial growth | BCG | 5 days | – | MIC90 | 20 µM (≈ 3.77 µg/mL) |
| O=C(O)c1nccnc1Nc1ccccc1 | Mycobacterium tuberculosis variant bovis BCG | microbial growth | ATCC35734 BCG | 5 days | – | IC50 | 400 µM |
| COc1ccc(-c2cc(=O)c3c(O)cc(O)cc3o2)cc1O | influenza virus | viral replication | MDCK | 72 h | – | IC50 | > 10 µM |
